# Published values of several laboratories.
# Parts stem from different laboratories: compare values within a part only.

# Series 1
# Cell line: HEK-293T
# Read-out: pseudovirus infection
# Technique: FDA-approved drug library screen
# Organism: VSV pseudotyped with SARS-CoV-2 spike
# Concentration: 10 µM
# Time: 16 h
# Reference: vehicle-treated
SMILES,GFP-positive cells [%]
N=C(N)NC(=O)Cc1c(Cl)cccc1Cl,79.6
Nc1ccc(S(=O)(=O)NC(=O)c2ccccc2)cc1,68.8
CC1(C)O[C@@H]2C[C@H]3[C@@H]4CCC5=CC(=O)C=C[C@]5(C)[C@@]4(F)[C@@H](O)C[C@]3(C)[C@]2(C(=O)CO)O1,98.1
CC1(C)S[C@@H]2[C@H](NC(=O)[C@H](NC(=O)N3CCNC3=O)c3ccccc3)C(=O)N2[C@H]1C(=O)O,105

# Series 2
# Target: Histone acetyltransferase KAT6A, winged helix 2, GST fusion (KAT6A, Homo sapiens, UniProt Q92794, residues 85-181)
# Technique: protein binding microarray
# Form: double-stranded DNA, one strand shown
# Medium: in vitro
# Concentration: not given
# Notes: 8-mer, flanks averaged, mean of 2 arrays, mostly near background
# Reference: not given
# Reading: higher = stronger binding
# Residues (chain): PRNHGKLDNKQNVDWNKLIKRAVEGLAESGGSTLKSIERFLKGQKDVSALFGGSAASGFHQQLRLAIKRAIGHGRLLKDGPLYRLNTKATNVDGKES
Oligonucleotide,E-score
ACAATCGT,-0.173
ACCCCAGC,0.0225
GAGCGGGC,0.116
GGCACAAC,0.114
CCCCCGCA,0.0787
ACAATGTA,0.0186
AATTGGTA,-0.119
GAGTCGTA,-0.193

# Series 3
# Target: Replicase polyprotein 1ab, main protease (rep, Severe acute respiratory syndrome coronavirus 2, UniProt P0DTD1)
# Read-out: enzyme activity
# Mode: inhibitor
# Concentration: 20 µM
# Notes: primary screen
Structure (SMILES),inhibition [%]
Oc1c(I)cc(I)c2cccnc12,25.9
O=C(C=Cc1ccc(O)c2c1C(C(=O)OC(Cc1ccc(O)c(O)c1)C(=O)O)C(c1ccc(O)c(O)c1)O2)OC(Cc1ccc(O)c(O)c1)C(=O)O (stereo not drawn),90.8
O=NN(CCCl)C(=O)NC1CCCCC1,62
C=C1C(=O)O[C@H]2[C@H]1CC/C(C)=C\CC[C@@]1(C)O[C@@H]21,39.1

# Series 4
# Target: Replicase polyprotein 1ab, nsp13 helicase (rep, Severe acute respiratory syndrome coronavirus 2, UniProt P0DTD1)
# Mode: inhibitor
# Concentration: 20 µM
SMILES,inhibition
Oc1cccc(Nc2ccc(Nc3cccc(O)c3)nn2)c1,5.83%
C[C@H]1O[C@@H](O[C@H]2CC[C@@]3(C)[C@H](CC[C@@H]4[C@@H]3C[C@@H](O)[C@]3(C)[C@@H](C5=CC(=O)OC5)CC[C@]43O)C2)C[C@H](O)[C@@H]1O[C@H]1C[C@H](O)[C@H](O[C@H]2C[C@H](O)[C@H](O[C@@H]3O[C@H](CO)[C@@H](O)[C@H](O)[C@H]3O)[C@@H](C)O2)[C@@H](C)O1,0.76%
CCCCOc1ccc(CC/C=C2\SC(=O)N(CCN)C2=O)cc1,43.3%
CCCCCCC[N+](CC)(CC)CCCCc1ccc(Cl)cc1,-1.39%
Fc1ccc(Cl)cc1-c1nc(Nc2ccncc2)c2nccnc2n1,9.39%
Cc1ncc(CO)c(C=O)c1O,6.36%
Cc1c(I)c(=O)n(-c2ccccc2)n1C,4.26%
Nc1cc(C(F)(F)F)c(-c2nc(N3CCOCC3)nc(N3CCOCC3)n2)cn1,-2.1%
O=c1cc[nH]c2cc(Cl)ccc12,12.5%
Nc1ncnc(Nc2ccc(Cl)cc2)n1,4.76%
O=C(O)CCCN1C(=O)c2cccc3cccc(c23)C1=O,-0.3%
COc1ccc2cccc(CCNC(C)=O)c2c1,0.64%
Cc1cc(C(=O)N2Cc3cnn(C)c3Nc3ccccc32)ccc1CNC(=O)N1CCC[C@H]1C(=S)N1CCCN(C)CC1,5.12%
N=C(N)c1ccc(N=NNc2ccc(C(=N)N)cc2)cc1,23.7%
CC(=O)N1CCC(C(=O)N(CCCN2CCC(Cc3ccc(C(N)=O)cc3)CC2)c2ccc(C)c(Cl)c2)CC1,7.54%
CC1(N)CCN(c2cnc(-c3cccc(Cl)c3Cl)c(N)n2)CC1,9.32%
O=C(/C=C/c1ccc2ccc(C(F)(F)F)cc2n1)c1ccncc1,60.8%
C[N+](C)(C)CCOP(=O)([O-])OC[C@H](O)CO,1.87%
NCC[C@H](O)C(=O)N[C@@H]1C[C@H](N)[C@@H](O[C@H]2O[C@H](CN)[C@@H](O)[C@H](O)[C@H]2O)[C@H](O)[C@H]1O[C@H]1O[C@H](CO)[C@@H](O)[C@H](N)[C@H]1O,0.91%
COc1cc(OC)cc(-c2ccc3c(-c4ccc(F)cc4)[nH]nc3n2)c1,-1.05%
N#Cc1cccc(-c2nc(-c3cccnc3)no2)c1,1.64%
CC[C@@H](c1cccc(O)c1)[C@@H](C)CN(C)C,5.47%
COc1cc(C(=O)NCc2ccc(OCCN(C)C)cc2)cc(OC)c1OC,7.42%
Cc1cc(-c2cc(OC(=O)c3ccccc3)ccc2Cl)cc2nnc(Nc3ccc(OCCN4CCCC4)cc3)nc12,4.56%
NCCCC[C@H](NC(=O)[C@@H]1CCCN1C(=O)[C@@H]1CSSC[C@H](N)C(=O)N[C@@H](Cc2ccc(O)cc2)C(=O)N[C@@H](Cc2ccccc2)C(=O)N[C@@H](CCC(N)=O)C(=O)N[C@@H](CC(N)=O)C(=O)N1)C(=O)NCC(N)=O,-2.71%

# Series 5
# Target: RNA binding protein fox-1 homolog 2, RRM domain, GST-SBP tag (RBFOX2, Homo sapiens, UniProt O43251-10, residues 100-194)
# Technique: RNA Bind-n-Seq
# Form: RNA
# Medium: in vitro
# Concentration: 365 nM
# Notes: natural RNA segment, single round, ends assumed
# Reference: no-protein control
# Reading: higher = stronger binding
# Shared flanks, not repeated: GGGAGUUCUACAGUCCGACGAUC … UGGAAUUCUCGGGUGCCAA
# Construct (chain): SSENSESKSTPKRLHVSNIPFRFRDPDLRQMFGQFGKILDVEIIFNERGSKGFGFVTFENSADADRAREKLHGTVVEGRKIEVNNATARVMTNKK
Oligonucleotide,RBNS enrichment (R)
GACAGCUUAAUGGCUGAUGCUCGUCUUCACAGCCCGUGGCGGGCUUUAACGUAGCUCGAAUCUGGUACACGCAUAAAGUUUUACGGUCAAGUCCUUUUCUUUCUUCUUGA,0.274
UGGAGUCUUUUUCAUGCUCUGGUCACCCAAGCUGCCUCAGAACCCAUUUGCUUCUCUCCUUCCUGGAAAGCUUCCCUUUAUGUUUUAUUUUGACCCCAGAUGUCCAGAUG,1.01
AGUUGCUGUUUGUUUGACAAAGAAACCCAAGUGGGGGCAGAGGGCAGAGGCUGGAGGCAGGGCCUUGCCCAGAGAUGCCUCCACCGCUGCCUAAGUGGCUGCUGACUGAU,0.284
UUGCUUUAAACUCUGUUCAAUCCCCAGGCUUUCUGAGUCCGCUCUACCUUUUCUGGGUGAUCUUGUGGCACAUGUAGCAAUGUUUCUUUCAUUCCUGUCCCUUCCUGGCU,0.331
CUGAGAUCCAGCAUCCAGCUGUGGCCAGGGAUCCACCACCUCUGUGUACACCCUCACCCGCUGCUGUCCUGCCCUCUGCCAGUGGCCCCAUCAACCCAGGCCUGGUCUUU,0.195
UUUCAGGGAAGGCAUGGAGGCAUAGUUUGGUUAGUUUCAUCACUAGGAUGUAUAAGGUGACGACACAAACCAAAUACCUUUCUUUCAUCACUUAACUAUACGUACUUUAU,3.09
UCCAACUACUGCUGCAGCAUUUUGGUAAAAACCUGUAGCGAUUCGUUACACUGGGGUGAGAAGAGAUAAGAGAAAUGAAAGAGAAGAGAAAUGGGACAUCUAAUAGUCCC,0.666
ACACAGUGAAUAACCUCUUGGAGUAUUUUUGGCUUUAUAUAAAACAAGGUUUUUAAUUGUAAAGUAUAAGUGCCAUUAGAAAAUGCACAGGGCAUAUCUUUGUUAAAGUA,0.36

# Series 6
# Target: RING finger protein unkempt homolog, zinc fingers 1-6, GST-SBP tag (UNK, Homo sapiens, UniProt Q9C0B0, residues 30-357)
# UniProt Q9C0B0, sequence (30-357, looked up): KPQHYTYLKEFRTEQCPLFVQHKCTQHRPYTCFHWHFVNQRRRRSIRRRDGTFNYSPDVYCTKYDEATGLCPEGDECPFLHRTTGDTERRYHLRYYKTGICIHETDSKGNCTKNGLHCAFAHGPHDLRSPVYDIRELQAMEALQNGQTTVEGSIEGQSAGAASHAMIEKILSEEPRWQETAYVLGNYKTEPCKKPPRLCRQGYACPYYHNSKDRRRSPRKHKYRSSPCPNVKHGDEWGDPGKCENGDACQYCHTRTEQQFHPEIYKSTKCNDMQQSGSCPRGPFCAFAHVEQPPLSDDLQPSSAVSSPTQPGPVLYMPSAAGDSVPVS
# Technique: RNA Bind-n-Seq
# Form: RNA
# Medium: in vitro
# Concentration: not given
# Notes: RNA with constant flanks, human-mouse chimeric sites, ends assumed
# Reference: input RNA pool
# Reading: higher = stronger binding
# Shared flanks, not repeated: GGGAGUUCUACAGUCCGACGAUC … CAACAGAGGAUUGAGCAUCA
Oligonucleotide,bound/input enrichment
ACUCAGAGAUUAUAUUCCCAAAGUGCUGGGAGUAAAGGUGUGGCCACCACACCUAACUUGAUGGAUAUAUAUUUUUUUUAAUAUGAAUGAACUCUUGCGUCCAGGGAAGAAAGAUUUGUU,0.47 ratio
CUGGGCUUCUCUUUUCUUUCUUUCCUUUAGGAAAAGCCUAAAGAUUAGGUUGUAAGAAAAACAGAAGCCAUGUUUCGAAGACCUGUAUUACAGGUAUUUCGUCAGUUUGUAAGACAUGAG,0.297 ratio
AGCACAACCCCAGCAAAGCUAAGAAAUCCUUGUACAAGUGAACAAAACUGCACCAGCCCAUUUAGCUACAAAAAUGUGCUCAGUCUUACUGACAGAGGAGAGUUUUUCAAUGAACUUGUU,1.15 ratio
ACAGUUAUAUUGUUGAGUUUCAUUUUCAUAUAUUCUUAUGGUGUCUGCUUGCCUGUGACUUCUGGUAAAAUAAAAUAAGCCUUUGAAUUAGCAUGCUCAUGGUAUUUAACAUUUUCUAAA,0.595 ratio
GCCACCAGAUCCCAGAAACAUGACCCUUGCAGCCUAUAAAGAGAAGAUGAAGGAACUCCCGCUGGUGUCCUUGUUCUGCUCCUGCUUCCUGGCCGAUCCCCUGAAUAAGUCGUCCUACAA,0.317 ratio
AAAGAACUACUGAGGCAAGGCAGCAAAUUUAGAAGAAACAUUUCAACAAUAUUGAUAGAGUUAGGAUUCCAAAUUAAAAAGAAAACUAAGACAUUAUACAUCAACAAAGCCAAUAUCUGG,22.6 ratio
AAAGAACUACUGAGGCAAGGCAGCAAAUUUAGGAGAGAUGUAUCAACAAUAUUGAUAGAGUUAGGAUUCCAAAUUAAAAAAAAAACUAAGACAUUAUACAUCAACAAAGCCAAUGUGUGG,17.1 ratio
AAUAGAGGAUCCACCUCCCAAAGUGCUGGGAGUAAAGGUGUGGCCACUCAAUUCUCCUUGAUGGAUAUAUAUUUUUUUUAAUAUGAAUCUUCCUGUUCGUCCAGGGAAGAAAGAUUUGUU,0.782 ratio

# Some of these lines once more (series 3):
Structure (SMILES),inhibition [%]
Oc1c(I)cc(I)c2cccnc12,25.9
O=C(C=Cc1ccc(O)c2c1C(C(=O)OC(Cc1ccc(O)c(O)c1)C(=O)O)C(c1ccc(O)c(O)c1)O2)OC(Cc1ccc(O)c(O)c1)C(=O)O (stereo not drawn),90.8
O=NN(CCCl)C(=O)NC1CCCCC1,62
C=C1C(=O)O[C@H]2[C@H]1CC/C(C)=C\CC[C@@]1(C)O[C@@H]21,39.1
